Measurements pooled from the literature.
Each line is one published result; not all experiments were run side by side. Numbers after ± are the reported error.

SMILES	organism	test	system	conditions	how to read	measurement	value
CC[C@H](C)[C@H](NC(=O)[C@H](C)NC(=O)[C@H](CCC(=O)O)NC(=O)[C@H](CCC(=O)O)NC(=O)[C@H](CC(C)C)NC(=O)[C@H](CCCCN)NC(=O)[C@H](CCCCN)NC(=O)[C@H](CCSC)NC(=O)[C@H](CCC(=O)O)NC(=O)[C@H](Cc1ccc(O)cc1)NC(=O)[C@H](CCC(=O)O)NC(=O)[C@H](CC(C)C)NC(=O)[C@H](CC(=O)O)NC(=O)[C@H](CC(C)C)NC(=O)[C@H](Cc1ccccc1)NC(=O)[C@@H](NC(=O)[C@@H](NC(=O)[C@H](CC(N)=O)NC(=O)[C@@H](NC(=O)[C@H](CCC(N)=O)NC(=O)[C@H](CC(=O)O)NC(=O)[C@H](CC(C)C)NC(=O)[C@@H](N)CO)[C@@H](C)CC)C(C)C)[C@@H](C)O)C(=O)N[C@@H](CCCCN)C(=O)N[C@@H](CCCCN)C(=O)N[C@@H](CC(C)C)C(=O)N[C@@H](CCC(=O)O)C(=O)N[C@@H](CCC(=O)O)C(=O)N[C@@H](CO)C(=O)N[C@@H](Cc1ccc(O)cc1)C(=O)N[C@H](C(=O)N[C@@H](CC(=O)O)C(=O)N[C@@H](CC(C)C)C(=O)N[C@@H](CCCCN)C(=O)N[C@@H](CCC(=O)O)C(=O)N[C@@H](CC(C)C)C(=O)O)[C@@H](C)CC	SARS-CoV-2 Gamma pseudovirus	pseudovirus infection, inhibitor, luciferase	Caco-2	24 h	–	IC50	1710 nM
CS(=O)(=O)C=CCNC(=O)c1ccc2[nH]c(=O)n(C3CC3)c2c1	Chikungunya virus	viral replication, nanoluciferase reporter	181/25-nLuc-Capsid	–	–	IC50	9800 ± 200 nM
Cc1ccccc1S(=O)(=O)Nc1cccc(C(=O)NC2CCN(c3ncnc4[nH]cnc34)CC2)c1	SARS-CoV-2	–	Wuhan-Hu-1	7.407 µM	reference: untreated infected cells	relative infection	42%
CC[C@H](C)[C@H](NC(=O)[C@H](C)NC(=O)[C@H](CCC(=O)O)NC(=O)[C@H](CCC(=O)O)NC(=O)[C@H](CC(C)C)NC(=O)[C@H](CCCCN)NC(=O)[C@H](CCCCN)NC(=O)[C@H](CCSC)NC(=O)[C@H](CCC(=O)O)NC(=O)[C@H](Cc1ccc(O)cc1)NC(=O)[C@H](CCC(=O)O)NC(=O)[C@H](CC(C)C)NC(=O)[C@H](CC(=O)O)NC(=O)[C@H](CC(C)C)NC(=O)[C@H](Cc1ccccc1)NC(=O)[C@H](Cc1ccccc1)NC(=O)[C@@H](NC(=O)[C@H](CC(N)=O)NC(=O)[C@@H](NC(=O)[C@H](CCC(N)=O)NC(=O)[C@H](CC(=O)O)NC(=O)[C@H](CC(C)C)NC(=O)[C@@H](N)CO)[C@@H](C)CC)C(C)C)C(=O)N[C@@H](CCCCN)C(=O)N[C@@H](CCCCN)C(=O)N[C@@H](CC(C)C)C(=O)N[C@@H](CCC(=O)O)C(=O)N[C@@H](CCC(=O)O)C(=O)N[C@@H](C)C(=O)N[C@@H](Cc1ccc(O)cc1)C(=O)N[C@H](C(=O)N[C@@H](CC(=O)O)C(=O)N[C@@H](CC(C)C)C(=O)N[C@@H](CCCCN)C(=O)N[C@@H](CCC(=O)O)C(=O)N[C@@H](CC(C)C)C(=O)O)[C@@H](C)CC	SARS-CoV-2 EG.5.1 pseudovirus	pseudovirus infection, inhibitor, luciferase	Caco-2	24 h, dual mutations	–	IC50	752 nM
O=C(O)C(O)=CC(=O)c1ccc2cc(O)c(O)cc2c1	Lymphocytic choriomeningitis mammarenavirus	minigenome reporter gene	–	100 µM	reference: DMSO	remaining activity	71.7%
CC[C@H](C)[C@H](NC(=O)[C@H](C)NC(=O)[C@H](CCC(=O)O)NC(=O)[C@H](CCC(=O)O)NC(=O)[C@H](CC(C)C)NC(=O)[C@H](CCCCN)NC(=O)[C@H](CCCCN)NC(=O)[C@H](CCSC)NC(=O)[C@H](CCC(=O)O)NC(=O)[C@H](Cc1ccc(O)cc1)NC(=O)[C@H](CCC(=O)O)NC(=O)[C@H](CC(C)C)NC(=O)[C@H](CC(=O)O)NC(=O)[C@H](CC(C)C)NC(=O)[C@H](Cc1ccccc1)NC(=O)[C@@H](NC(=O)[C@@H](NC(=O)[C@H](CC(N)=O)NC(=O)[C@@H](NC(=O)[C@H](CCC(N)=O)NC(=O)[C@H](CC(=O)O)NC(=O)[C@H](CC(C)C)NC(=O)[C@@H](N)CO)[C@@H](C)CC)C(C)C)[C@@H](C)O)C(=O)N[C@@H](CCCCN)C(=O)N[C@@H](CCCCN)C(=O)N[C@@H](CC(C)C)C(=O)N[C@@H](CCC(=O)O)C(=O)N[C@@H](CCC(=O)O)C(=O)N[C@H](C(=O)N[C@@H](Cc1ccc(O)cc1)C(=O)N[C@H](C(=O)N[C@@H](CC(=O)O)C(=O)N[C@@H](CC(C)C)C(=O)N[C@@H](CCCCN)C(=O)N[C@@H](CCC(=O)O)C(=O)N[C@@H](CC(C)C)C(=O)O)[C@@H](C)CC)[C@@H](C)O	SARS-CoV-2	pseudovirus infection, inhibitor, luciferase	Caco-2, D614G pseudovirus	24 h	–	IC50	892 nM
COc1ccc(S(=O)(=O)Nc2cccc(C(=O)NC3CCN(c4ncnc5[nH]cnc45)CC3)c2)cc1	SARS-CoV-2	–	Wuhan-Hu-1	0.09145 µM	reference: untreated infected cells	relative infection	70%
O=C(NCc1ccccc1)C1C(=O)N(O)C(=O)c2cc([N+](=O)[O-])ccc21 (stereo not drawn)	Lymphocytic choriomeningitis mammarenavirus	minigenome reporter gene	–	50 µM	reference: DMSO	remaining activity	72.9%
Cc1ccc(S(=O)(=O)Nc2cccc(C(=O)NC3CCN(c4ncnc5[nH]cnc45)CC3)c2)cc1Cl	SARS-CoV-2	–	Wuhan-Hu-1	0.823 µM	reference: untreated infected cells	relative infection	61.4%
O=C(O)C(=O)CC(=O)C1(Cc2ccc(Cl)cc2)CCN(Cc2ccccc2)CC1	SFTSV	viral replication, cell-based	–	–	–	effective concentration	> 50 µM
O=C(NC1CCN(c2ncnc3[nH]cnc23)CC1)c1cccc(NS(=O)(=O)c2ccc([N+](=O)[O-])cc2)c1	SARS-CoV-2	–	Wuhan-Hu-1	0.01016 µM	reference: untreated infected cells	relative infection	87.3%
CC[C@H](C)[C@H](NC(=O)[C@H](C)NC(=O)[C@H](CCC(=O)O)NC(=O)[C@H](CCC(=O)O)NC(=O)[C@H](CC(C)C)NC(=O)[C@H](CCCCN)NC(=O)[C@H](CCCCN)NC(=O)[C@H](CCSC)NC(=O)[C@H](CCC(=O)O)NC(=O)[C@H](Cc1ccc(O)cc1)NC(=O)[C@H](CCC(=O)O)NC(=O)[C@H](CC(C)C)NC(=O)[C@H](CC(=O)O)NC(=O)[C@H](CC(C)C)NC(=O)[C@H](Cc1ccccc1)NC(=O)[C@@H](NC(=O)[C@@H](NC(=O)[C@H](CC(N)=O)NC(=O)[C@@H](NC(=O)[C@H](CCC(N)=O)NC(=O)[C@H](CC(=O)O)NC(=O)[C@H](CC(C)C)NC(=O)[C@@H](N)CO)[C@@H](C)CC)C(C)C)[C@@H](C)O)C(=O)N[C@@H](CCCCN)C(=O)N[C@@H](CCCCN)C(=O)N[C@@H](CC(C)C)C(=O)N[C@@H](CCC(=O)O)C(=O)N[C@@H](CCC(=O)O)C(=O)N[C@@H](C)C(=O)N[C@@H](Cc1ccc(O)cc1)C(=O)N[C@H](C(=O)N[C@@H](CC(=O)O)C(=O)N[C@@H](CC(C)C)C(=O)N[C@@H](CCCCN)C(=O)N[C@@H](CCC(=O)O)C(=O)N[C@@H](CC(C)C)C(=O)O)[C@@H](C)CC	SARS-CoV-2 Alpha pseudovirus	pseudovirus infection, inhibitor, luciferase	Caco-2	24 h	–	IC50	359 nM

Some of these lines once more:
SMILES	organism	test	system	conditions	how to read	measurement	value
O=C(NC1CCN(c2ncnc3[nH]cnc23)CC1)c1cccc(NS(=O)(=O)c2ccc([N+](=O)[O-])cc2)c1	SARS-CoV-2	–	Wuhan-Hu-1	0.01016 µM	reference: untreated infected cells	relative infection	87.3%
